{"data": "Published values of several laboratories", "target": "Serine/threonine-protein kinase PAK 6 (PAK6, Homo sapiens, UniProt Q9NQU5)", "note": "Each line is one published result; not all experiments were run side by side. “And” joins repeats or separate records; there may be more than shown."}
{"SMILES": "CNC(=O)C1CCN(c2cc(C)c(F)cc2NC(=O)c2ccc(-c3cc(O)ccc3C)c(C)c2)CC1", "assay": "binding, competition with immobilised ligand", "setting": "1 µM", "endpoint": "remaining binding", "result": "100%"}
{"SMILES": "C=CC(=O)Nc1cccc(-c2cnc3[nH]cc(C(=O)NC(C)(C)C)c3n2)c1", "assay": "kinase activity", "setting": "0.1 µM", "endpoint": "inhibition", "result": "4% and 2%"}
{"SMILES": "C[C@H]1CN(C(=O)c2cn(-c3ccnc(N)n3)c3cc(C#CC4(O)CCCCC4)ccc23)CCN1", "assay": "enzyme activity, inhibitor, FRET", "setting": "1 µM", "endpoint": "inhibition", "result": "77%"}
{"SMILES": "COc1ccc(NC(=O)Nc2ccc3c(c2)C(=O)N(C(C)CO)CC(C)C(CN(C)Cc2ccc4c(c2)OCO4)O3)cc1 (stereo not shown)", "assay": "kinase activity, KinaseProfiler", "setting": "0.03 µM, species human", "scale": "reference: control", "endpoint": "remaining activity", "result": "100%"}
{"SMILES": "Nc1ncc2c(n1)-c1c([nH]c3ccc(C4=CCOCC4)cc13)CCC2", "assay": "binding, competition with immobilised ligand", "setting": "1 µM", "endpoint": "remaining binding", "result": "60%"}
{"SMILES": "Cc1cccc(-c2ccc3nc(NC(=O)C4CCCCC4)nn3c2)c1", "assay": "enzyme activity, Dundee kinase panel", "setting": "10 µM", "endpoint": "remaining activity", "result": "76%"}
{"SMILES": "CNC1C[S+]2CC[S+]3CC[S+](C1)[Ru-4]321([N]=C=S)[n]2c3ccc(OC)cc3c3c4c(c5cc(F)c[n+]1c5c32)C(=O)NC4=O (stereo not shown)", "assay": "KinomeScan", "setting": "0.1 µM", "scale": "reference: untreated", "endpoint": "remaining binding", "result": "94%"}
{"SMILES": "C=CC(=O)N1CCc2ccc(-n3c(=O)ccc4cnc5ccc(-c6cnn(C)c6)cc5c43)cc21", "assay": "KINOMEscan", "setting": "1 µM", "scale": "reference: DMSO control", "endpoint": "remaining binding", "result": "100%"}
{"SMILES": "COc1cc(Nc2nc(C)cc(-c3cnn4nc(OC)ccc34)n2)cc(C(F)(F)F)c1", "assay": "inhibitor", "setting": "1 µM", "scale": "reference: control", "endpoint": "remaining activity", "result": "82%"}
{"SMILES": "COc1c(Cl)cccc1Nc1c(-c2ccncc2C#C[C@@]2(C)CCCN2C(=O)/C=C/CN(C)C)[nH]c2c1C(=O)NCC2", "assay": "cell-free assay, competition with immobilised ligand", "setting": "3 µM", "endpoint": "remaining binding", "result": "74%"}
{"SMILES": "O=C(Cc1ccc(OCc2ccccc2)cc1)NC1(C(=O)O)CCN(C(=O)c2ccc(-c3cccc(Cl)c3)cc2)CC1", "assay": "enzyme activity, inhibitor", "setting": "10 µM", "endpoint": "activity vs control", "result": "110%"}
{"SMILES": "Cc1cnc2nc1Nc1cccc(c1)COC/C=C/COCc1cc(ccc1OCCN1CCOCC1)N2", "assay": "binding", "setting": "0.1 µM", "endpoint": "remaining binding", "result": "84%"}
{"SMILES": "Cc1cccc(-c2ccc3nc(NC(=O)C4CCCO4)nn3c2)c1 (stereo not shown)", "assay": "enzyme activity, Dundee kinase panel", "setting": "10 µM", "endpoint": "remaining activity", "result": "84%"}
{"SMILES": "NC(=O)[C@@H](O)C[C@H]1CCc2sc3ncnc(O[C@H]4CC[C@H](N5CCOCC5)CC4)c3c21", "assay": "enzyme activity, inhibitor", "setting": "10 µM", "endpoint": "inhibition", "result": "11%"}
{"SMILES": "Cc1ccc(-c2c(/C=C(\\C#N)C(=O)NC(C)C)n(CCCO)c3ncnc(N)c23)cc1", "assay": "cell-free assay, competition with immobilised ligand", "setting": "1 µM", "endpoint": "remaining binding", "result": "100%"}
{"SMILES": "COc1ccc(C(=O)/C=C/c2ccccc2-c2c[nH]c3ccc(C#N)cc23)c(O)c1", "assay": "enzyme activity, inhibitor", "setting": "20 µM", "endpoint": "inhibition", "result": "-7%"}
{"SMILES": "CCN1CCN(Cc2ccc(C(=O)Nc3ccc(C)c(NCc4cnc5[nH]ccc5c4OC)c3)cc2C(F)(F)F)CC1", "assay": "binding, competition with immobilised ligand", "setting": "1 µM", "endpoint": "remaining binding", "result": "100%"}
{"SMILES": "Cc1cccc(O[C@H]2CCC[C@@H](C(C)CNCc3ccncc3)C2)c1 (relative stereo)", "assay": "enzyme activity, inhibitor", "setting": "1 µM", "endpoint": "inhibition", "result": "-3%"}
{"SMILES": "Nc1nc(Nc2ccccc2)sc1C(=O)c1ccccc1", "assay": "enzyme activity, inhibitor", "setting": "10 µM", "endpoint": "remaining activity", "result": "52%"}
{"note": "Repeated from above:"}
{"SMILES": "Cc1cccc(O[C@H]2CCC[C@@H](C(C)CNCc3ccncc3)C2)c1 (relative stereo)", "assay": "enzyme activity, inhibitor", "setting": "1 µM", "endpoint": "inhibition", "result": "-3%"}
{"SMILES": "Nc1nc(Nc2ccccc2)sc1C(=O)c1ccccc1", "assay": "enzyme activity, inhibitor", "setting": "10 µM", "endpoint": "remaining activity", "result": "52%"}
